Assay results pooled from the literature.
Numbered parts are unrelated; each lists some results of a single study.

Set 1
Target: RNA binding protein fox-1 homolog 2, RRM domain, GST-SBP tag (RBFOX2, Homo sapiens, UniProt O43251-10, residues 100-194)
Technique: RNA Bind-n-Seq
Molecule type: RNA
Sample: in vitro
Concentration: 365 nM
Notes: natural RNA segment, single round, ends assumed
Baseline: no-protein control
Reading: higher = stronger binding
Measurement: RBNS enrichment (R)
All sequences stand within: GGGAGUUCUACAGUCCGACGAUC … UGGAAUUCUCGGGUGCCAA
Target sequence (chain): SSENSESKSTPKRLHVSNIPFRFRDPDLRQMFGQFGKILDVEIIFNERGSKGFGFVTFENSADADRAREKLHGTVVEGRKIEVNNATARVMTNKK
Strand = CCCCGUUCUUGGAAUUUUCUUCCCCAUGGGGCUGGGGUACUUUACAUUCAAUAAAUACUGUUUAACCAAUGUCCUGGUUUGUUUAUACACAGAAAGGUGGGUCCUGGAAC; value = 0.658
Strand = AUAAAAAUGUUAACCAGAAGGUAACCCUGAGUGUGAUUGUGAGAGAGACACGCCUUUUUACUAGUUCAUUUGCAUUUAAAUCAGUGAUCCUGUUCUGUGGCAUUCAUGAA; value = 1.25
Strand = AAGAUUUGUAGUCUGGAAUCAUGUAGUCUCAUAUGCUGCACUUAUUUUUAUAUUUUUCAAUGCACUUAAUUAUUGUUUUUAUAUAAUUAUUUGUACUAACUCAGCAUGUA; value = 1.46
Strand = CACAGCCUCCCCUGGCUACCCAAGACAUUCCAGAAUGCUCCACCCUAUUGGCACAAGAAGUGGGGCACCCCCCCCCAGAAGGAACCAGAAACUAAGGCUAUCAAGGAGUG; value = 0.296
Strand = GAGCCUGAUGACUCCAAACAAAGCCAUCACCCGCAUUCUUCCUCCUUCUUCUGGUGCUACAGCUCCAAGGGCCCUUCACCUUCAUGUCUGAAAUGGAACUUUGGCUUUUU; value = 0.794
Strand = CUUUGUUACAGUGCUAACAUCUUUUUUUUUGUGCAGGUAUCCAUGAUUAUUAAGCAGGGUGGAAGUUCAGUAUUUUGUCAUUUAAAAAGAUUAGUUAUAUAAUGUCUGCU; value = 0.981
Strand = UGUCUCUUCACUAAGAGUAAACUGGGAAAUUGUAGGCCAAAGUCCAGUUGAACUUUCUAAGUCUGUGAUCCCCGUGCUGACUGUGGAAGUGUAUUUAUACCAAGAUGGAG; value = 0.33
Strand = CUUGCCCCAUCUUCCUCCCAACUGGAGGCCUCUGAGCCUCCCCUGUGCCUUGGGCCCUGAAGCCCCAUAUGUAGUAUAGAGCAAAGGUGGCUCCUGGUGAAGAGAGGGUG; value = 0.28
Strand = UUAGAAACGGAAAUGGAAUCCUGCUCACAAAAUCACUUUAAGAUCUUUUCGAAGCUGUUAAUUUUUCUUAGUGUUGUGGACACUGCAGACUUGUCCAGUGCUCCCACGGC; value = 0.59
Strand = UCUCUUGAAUGUAGCCCCACCCUGUAGGUCCUCUCAAAGCCAGAGCCCUGUUCUUAAAUUACUAGUGAUUCUAGUAGUGACAUCGUUAGUAAUUUAACUCUAUAAUUGCA; value = 1.91
Strand = ACUAUUAGGAAUUGAGAAGGGGGAUCAACUAAAUAAACGAAGAGAGUCUUUCUUAUGCCUUCCUUGCGUUAUGUAAUAUUUUCUUUUUUAAAUUUCACAUGCAUGUAAUU; value = 13
Strand = UAGAGUAGACUGGGCCAACAAGUCAACAAGUGGUGGCGUGUGCAAACGGGCUGCCCUAGUCAAGCCCAGUCCCUUCAACAGUAUGUCUGAUGCACCACAGGCCCUCCCUA; value = 0.208

Set 2
Target: Interferon regulatory factor 7, full length, phosphomimetic (IRF7, Homo sapiens, UniProt Q92985, residues 1-503, S471D/S472D/S475D/S476D/S477D/S483D/S484D/S487D)
Technique: protein-binding microarray
Molecule type: double-stranded DNA, one strand shown
Sample: in vitro
Concentration: 2200 nM top
Notes: 60-bp whole probe
Added: salmon DNA 0.4 mg/ml
Baseline: random background probes
Reading: higher = stronger binding
Measurement: fitted relative affinity
All sequences stand within: GCCTAGCAC … GTCTTGATTCGCTTGACGCTGCTG
Residues (chain): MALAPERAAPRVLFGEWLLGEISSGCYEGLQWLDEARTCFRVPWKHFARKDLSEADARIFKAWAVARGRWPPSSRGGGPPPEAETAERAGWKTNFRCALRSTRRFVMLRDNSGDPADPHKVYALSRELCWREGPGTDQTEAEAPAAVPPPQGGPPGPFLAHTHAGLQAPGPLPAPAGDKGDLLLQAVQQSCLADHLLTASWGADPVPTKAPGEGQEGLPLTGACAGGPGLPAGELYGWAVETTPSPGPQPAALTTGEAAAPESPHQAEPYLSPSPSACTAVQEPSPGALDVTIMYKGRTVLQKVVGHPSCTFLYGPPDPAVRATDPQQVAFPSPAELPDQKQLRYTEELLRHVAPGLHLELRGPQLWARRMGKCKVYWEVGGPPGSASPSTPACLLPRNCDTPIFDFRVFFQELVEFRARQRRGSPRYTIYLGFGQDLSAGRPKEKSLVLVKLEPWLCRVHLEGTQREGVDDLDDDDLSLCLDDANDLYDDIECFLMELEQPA
Strand = GACGGTTCCGGGTTTCGGGACGTGCTA; value = 3.02 z-score
Strand = GGCTGTTTGGTTCTTATCCTGTGCTAG; value = 1.01 z-score
Strand = GACGTACTGGGTTTCGGGACGTGCTAG; value = 1.76 z-score
Strand = TGGGAAATTCCTCTGAATAGGTGCTAG; value = -0.399 z-score
Strand = GTTATCCTATATCTGAACCGGTGCTAG; value = 1.28 z-score
Strand = GACGATTTCAGTATCGCGACGTGCTAG; value = 0.998 z-score
Strand = GCCGGTCTCGGACTGGGGACGTGCTAG; value = -0.476 z-score
Strand = TCATTTTTAATGAATGAAACTGTGCTA; value = -0.155 z-score
Strand = TTAGGTTTCGGTTTCGGCTAGTGCTAG; value = 14.6 z-score
Strand = GGGGAGCAGGGTGGCCCTGTGTGCTAG; value = -1.59 z-score
Strand = GTGGGACCCATGAACACTCAGTGCTAG; value = -0.446 z-score
Strand = TTAGATTTCGGGACTGGGTTAGTGCTA; value = 0.933 z-score
Strand = GATGGACTGGGTATCGGGACGTGCTAG; value = -0.806 z-score
Strand = TTAGGACTCGGACTGGGTTAGTGCTAG; value = -0.446 z-score
Strand = GACGGTATCGGGACCGGGGACGTGCTA; value = -0.503 z-score
Strand = GACGGACTGGGGTATCGCGACGTGCTA; value = -0.684 z-score
Strand = ATACTGAGAAAGCACTGGACGTGCTAG; value = -0.383 z-score

Set 3
Target: Histone acetyltransferase KAT6A, both winged helices, GST fusion (KAT6A, Homo sapiens, UniProt Q92794, residues 1-181)
Technique: protein binding microarray
Molecule type: double-stranded DNA, one strand shown
Sample: in vitro
Concentration: not given
Notes: 8-mer, flanks averaged, mean of 2 arrays, mostly near background
Baseline: not given
Reading: higher = stronger binding
Measurement: E-score
Residues (chain): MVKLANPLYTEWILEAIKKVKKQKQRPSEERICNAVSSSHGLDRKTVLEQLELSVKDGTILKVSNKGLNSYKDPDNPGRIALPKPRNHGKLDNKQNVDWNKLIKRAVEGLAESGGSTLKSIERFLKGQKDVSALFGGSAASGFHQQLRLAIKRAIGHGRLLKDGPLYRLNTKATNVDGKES
Strand = GTGCAAAC; value = 0.0614
Strand = AGAGTTTA; value = -0.112
Strand = CTTTGACC; value = 0.0324
Strand = ACAGAGTC; value = 0.0104
Strand = ATCGAAGG; value = -0.00026
Strand = GGTTGAAA; value = -0.0934
Strand = GCTGCGAC; value = 0.0827
Strand = CGATCCCG; value = 0.203
Strand = TGTTGGAA; value = -0.184
Strand = CCAAACAG; value = -0.214
Strand = CAGTGACG; value = 0.0054
Strand = CGTGCCAC; value = 0.124
Strand = ATATAAAG; value = -0.0645
Strand = CTCCTAAG; value = -0.153
Strand = AGACGGTG; value = 0.0202
Strand = AATCAAGT; value = -0.0532
Strand = GCATCGAC; value = -0.0124
Strand = GCACTTAA; value = 0.0178
Strand = AACTTCAA; value = -0.145

Set 4
Target: Ras GTPase-activating protein-binding protein 1, full length (G3BP1, Homo sapiens, UniProt Q13283)
Chain of UniProt Q13283 (whole entry, looked up): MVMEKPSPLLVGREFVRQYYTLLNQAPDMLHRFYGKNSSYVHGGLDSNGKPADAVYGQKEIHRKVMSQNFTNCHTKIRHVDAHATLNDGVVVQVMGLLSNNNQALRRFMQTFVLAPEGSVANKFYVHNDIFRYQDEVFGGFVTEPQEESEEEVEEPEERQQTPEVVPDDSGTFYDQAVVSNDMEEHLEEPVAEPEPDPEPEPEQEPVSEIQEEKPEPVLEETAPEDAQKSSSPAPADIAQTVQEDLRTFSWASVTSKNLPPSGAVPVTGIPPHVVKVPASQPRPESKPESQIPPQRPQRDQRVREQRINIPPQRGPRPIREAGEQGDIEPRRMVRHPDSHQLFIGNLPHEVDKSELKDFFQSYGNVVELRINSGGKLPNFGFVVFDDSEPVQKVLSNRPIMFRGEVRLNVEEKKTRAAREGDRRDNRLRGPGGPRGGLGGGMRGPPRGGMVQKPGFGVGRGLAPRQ
Technique: RNA Bind-n-Seq
Molecule type: RNA
Sample: in vitro
Concentration: 200 nM
Notes: whole 134-nt RNA, ends assumed
Added: 150 mM LiCl
Baseline: input library
Reading: higher = stronger binding
Measurement: log2 enrichment
All molecules: 7-deaza-guanosine replaces G
All sequences stand within: GGGAGUUCUACAGUCCGACGAUC … UGGAAUUCUCGGGUGUCAAGG
Strand = GUAGCUGCUCCAGUGGGCCCAGUGGGCCCCACUCCUACAGUUUUGCCCAUGGGAGCCCCUGUUCCCCGGCCUCGUGGUCCCCCACCGCCC; value = 0.246
Strand = UGGGAGGUGGAUUUUGUGUAUUUUUUUAGCUCAUUUCCAGGGGUGGGAAUUUUUUUUUAAUAUGUGUCAUGAAUAAAGUUGUUUUUGAAA; value = 0.153
Strand = CAAGUCCUGUGCUACACAUCGUAUGUACCGAAUCGGGGAAGGGGAAGGGGAAGGGAAAGUAUUAUGUUACGCCGUUCGGAUCUGCACUUC; value = 0.0615
Strand = CACAGACAACACGCACCCACACAGACACAGAGGGAAGGGGUUGGGAUGGGGACAGGGUGCACAGCAGGGCGGGGUAGAAACCCAGCCCCU; value = 0.584
Strand = CACAGACAACACGCACCCACACGGACACAGAGGGAAGGGGUUGGGAUGGGGACAGGGUGCACAGCAGGGCGGGGUAGGACCCCAGCCCCU; value = 0.497
Strand = ACCAUGCAGGUGGGCAUCUUUGGGAAGUGGGGCAAGGGGGGGAUAGGGAGGGGGGUAACACUUUGGGAACAGGUCGUCCCAGGUCGUUUC; value = -0.147
Strand = CCUGUGCUACACAUCGUAUGUACCGAAUCGGAAAAAAAGGGAAAAAAAGGGGAAAAAAAGGAAAGUAUUAUGUUACGCCGUUCGGAUCUG; value = -0.0524
Strand = UGGGAGGUGGAUUUUGAUUAUUUUUUUAGCUCAUUUCCAGGGGUGGGAAUUUUUUUUUAAUAUGUGUCAUGAAUAAAGUUGUUUUUGAAA; value = -0.99
Strand = UCCUGUGCUACACAUCGUAUGUACCGAAUCAAAGUGUGUGUGUGUGUGUGUGUGUGUAAAAAAGUAUUAUGUUACGCCGUUCGGAUCUGC; value = -0.727
Strand = UGGGAGGUGGAUUUUGUUUAUUUUUUUAGCUCAUUUCGAGGGGUGGGAAUUUUUUUUUAAUAUGUGUCAUGAAUAAAGUUGUUUUUGAAA; value = 0.449
Strand = CCUGUGCUACACAUCGUAUGUACCGAAUCGGGGUUUUUUGGUUUUUUGGGGUUUUUUGGGGAAAGUAUUAUGUUACGCCGUUCGGAUCUG; value = -0.0815
